Results from different studies.
Compare with care: the assays were run in different laboratories. ± marks the error that the study gave.
GRPR: Gastrin-releasing peptide receptor (GRPR, Homo sapiens, UniProt P30550)
UniProt P30550, sequence (whole entry, looked up): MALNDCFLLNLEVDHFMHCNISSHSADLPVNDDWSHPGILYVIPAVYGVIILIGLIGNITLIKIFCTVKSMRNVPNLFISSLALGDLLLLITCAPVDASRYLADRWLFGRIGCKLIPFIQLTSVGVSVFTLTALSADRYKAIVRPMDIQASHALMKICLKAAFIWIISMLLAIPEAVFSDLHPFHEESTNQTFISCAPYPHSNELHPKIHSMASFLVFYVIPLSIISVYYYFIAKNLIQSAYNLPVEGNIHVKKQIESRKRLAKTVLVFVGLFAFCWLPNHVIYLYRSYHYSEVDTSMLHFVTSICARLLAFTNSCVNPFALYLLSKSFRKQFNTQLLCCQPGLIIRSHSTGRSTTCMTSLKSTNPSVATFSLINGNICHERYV
Sctr: Sctr (Rattus norvegicus, UniProt P23811)
UniProt P23811, sequence (whole entry, looked up): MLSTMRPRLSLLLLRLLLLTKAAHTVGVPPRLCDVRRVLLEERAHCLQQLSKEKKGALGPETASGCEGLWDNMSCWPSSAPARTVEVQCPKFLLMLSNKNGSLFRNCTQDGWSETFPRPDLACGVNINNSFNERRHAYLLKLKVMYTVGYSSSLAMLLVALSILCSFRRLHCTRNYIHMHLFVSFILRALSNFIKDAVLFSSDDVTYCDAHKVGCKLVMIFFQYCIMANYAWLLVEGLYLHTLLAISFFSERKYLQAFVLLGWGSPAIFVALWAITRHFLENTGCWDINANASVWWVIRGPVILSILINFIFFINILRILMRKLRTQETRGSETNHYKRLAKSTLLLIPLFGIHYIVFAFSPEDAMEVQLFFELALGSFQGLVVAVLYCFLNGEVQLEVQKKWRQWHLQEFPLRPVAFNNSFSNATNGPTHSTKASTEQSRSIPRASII
UniProt P39748, sequence (whole entry, looked up): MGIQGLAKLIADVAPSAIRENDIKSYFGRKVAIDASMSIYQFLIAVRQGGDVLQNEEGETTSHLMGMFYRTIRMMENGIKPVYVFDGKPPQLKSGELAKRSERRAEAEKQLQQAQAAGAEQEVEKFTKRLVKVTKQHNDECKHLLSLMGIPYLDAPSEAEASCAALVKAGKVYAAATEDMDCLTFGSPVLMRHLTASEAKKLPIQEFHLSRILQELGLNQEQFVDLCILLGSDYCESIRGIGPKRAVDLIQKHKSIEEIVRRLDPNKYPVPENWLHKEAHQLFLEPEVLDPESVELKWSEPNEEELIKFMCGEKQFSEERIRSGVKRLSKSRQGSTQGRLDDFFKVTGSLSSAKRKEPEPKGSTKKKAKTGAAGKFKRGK
UniProt P18505, sequence (whole entry, looked up): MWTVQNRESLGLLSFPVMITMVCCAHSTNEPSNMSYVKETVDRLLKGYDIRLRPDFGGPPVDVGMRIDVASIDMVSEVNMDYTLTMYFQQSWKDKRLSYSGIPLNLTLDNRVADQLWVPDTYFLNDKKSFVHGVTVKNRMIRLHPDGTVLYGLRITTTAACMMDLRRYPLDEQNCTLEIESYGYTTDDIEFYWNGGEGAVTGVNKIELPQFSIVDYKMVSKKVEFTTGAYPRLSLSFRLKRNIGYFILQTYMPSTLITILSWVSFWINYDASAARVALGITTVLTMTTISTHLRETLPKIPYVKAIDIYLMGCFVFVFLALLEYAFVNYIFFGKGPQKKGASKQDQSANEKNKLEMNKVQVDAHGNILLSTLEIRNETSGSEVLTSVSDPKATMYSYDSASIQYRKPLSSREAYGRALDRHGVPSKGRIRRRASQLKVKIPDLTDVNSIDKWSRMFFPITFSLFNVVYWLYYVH
UniProt P30518, sequence (whole entry, looked up): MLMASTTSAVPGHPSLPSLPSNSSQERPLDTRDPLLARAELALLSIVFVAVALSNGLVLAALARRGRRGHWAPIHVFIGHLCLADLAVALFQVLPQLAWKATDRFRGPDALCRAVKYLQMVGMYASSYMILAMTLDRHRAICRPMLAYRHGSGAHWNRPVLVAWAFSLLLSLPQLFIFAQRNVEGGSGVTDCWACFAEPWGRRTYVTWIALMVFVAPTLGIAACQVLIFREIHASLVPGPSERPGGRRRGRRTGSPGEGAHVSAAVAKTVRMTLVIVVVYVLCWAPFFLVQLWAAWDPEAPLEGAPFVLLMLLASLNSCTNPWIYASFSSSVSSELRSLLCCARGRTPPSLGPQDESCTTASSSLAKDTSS
UniProt O15552, sequence (whole entry, looked up): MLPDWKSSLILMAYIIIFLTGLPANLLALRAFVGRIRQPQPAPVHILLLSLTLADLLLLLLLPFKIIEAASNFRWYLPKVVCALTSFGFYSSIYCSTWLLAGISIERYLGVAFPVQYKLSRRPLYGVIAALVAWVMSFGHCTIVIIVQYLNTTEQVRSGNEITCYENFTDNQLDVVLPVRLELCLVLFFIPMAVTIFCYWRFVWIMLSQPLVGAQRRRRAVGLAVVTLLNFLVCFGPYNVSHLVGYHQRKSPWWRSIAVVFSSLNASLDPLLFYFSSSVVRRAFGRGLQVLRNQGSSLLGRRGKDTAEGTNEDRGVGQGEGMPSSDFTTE
UniProt Q16740, sequence (whole entry, looked up): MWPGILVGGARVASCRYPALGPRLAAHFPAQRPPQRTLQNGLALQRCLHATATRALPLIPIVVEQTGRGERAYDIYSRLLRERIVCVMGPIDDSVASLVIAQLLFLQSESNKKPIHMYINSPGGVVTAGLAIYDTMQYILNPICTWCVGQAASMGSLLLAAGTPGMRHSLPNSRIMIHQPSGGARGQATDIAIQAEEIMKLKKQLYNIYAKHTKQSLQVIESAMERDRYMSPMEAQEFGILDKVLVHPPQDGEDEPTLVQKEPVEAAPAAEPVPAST
UniProt P47869, sequence (whole entry, looked up): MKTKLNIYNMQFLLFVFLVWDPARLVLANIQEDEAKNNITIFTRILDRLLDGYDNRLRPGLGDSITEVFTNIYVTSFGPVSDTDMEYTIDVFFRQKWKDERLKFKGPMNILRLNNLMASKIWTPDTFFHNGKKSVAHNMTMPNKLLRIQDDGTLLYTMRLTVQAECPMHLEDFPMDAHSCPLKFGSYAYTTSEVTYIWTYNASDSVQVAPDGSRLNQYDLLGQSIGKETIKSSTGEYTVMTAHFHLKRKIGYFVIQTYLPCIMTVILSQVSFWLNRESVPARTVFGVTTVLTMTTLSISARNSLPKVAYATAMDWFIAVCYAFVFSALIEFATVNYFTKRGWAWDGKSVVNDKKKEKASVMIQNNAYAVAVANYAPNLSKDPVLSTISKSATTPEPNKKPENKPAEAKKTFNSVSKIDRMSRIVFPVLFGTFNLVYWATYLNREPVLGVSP
UniProt P18507, sequence (whole entry, looked up): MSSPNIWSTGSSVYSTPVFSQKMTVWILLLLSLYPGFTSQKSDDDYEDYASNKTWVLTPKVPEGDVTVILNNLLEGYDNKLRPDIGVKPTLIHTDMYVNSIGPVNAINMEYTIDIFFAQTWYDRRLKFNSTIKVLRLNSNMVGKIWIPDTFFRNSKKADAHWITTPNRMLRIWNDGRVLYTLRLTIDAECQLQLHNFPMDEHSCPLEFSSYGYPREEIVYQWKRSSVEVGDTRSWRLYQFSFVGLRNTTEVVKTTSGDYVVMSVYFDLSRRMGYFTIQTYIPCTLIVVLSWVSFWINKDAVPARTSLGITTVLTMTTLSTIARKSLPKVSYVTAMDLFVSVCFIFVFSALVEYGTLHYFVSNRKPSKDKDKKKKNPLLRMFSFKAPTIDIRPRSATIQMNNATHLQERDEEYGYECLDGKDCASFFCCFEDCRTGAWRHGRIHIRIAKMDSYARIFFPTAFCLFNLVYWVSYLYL

Structure (SMILES) | target | test | test system | conditions | scale | EC50 [µM]
CC(C)C[C@@H]1NC(=O)[C@H](Cc2c[nH]cn2)NC(=O)[C@@H](C)NC(=O)[C@H](C(C)C)NC(=O)[C@H](C)NC(=O)[C@H](Cc2c[nH]c3ccccc23)NC(=O)[C@H](CCC(N)=O)NC(=O)[C@H](N)CSSC[C@@H](C(N)=O)NC1=O | GRPR | inositol phosphate generation, agonist | BALB/3T3 transfected with human GRPR | 45 min, 37 °C | baseline: 1 µM GRP | 0.194 ± 0.011
COc1ccc(Cn2c(=O)n(O)c(=O)c3ccccc32)cc1 | Flap endonuclease 1 (Homo sapiens, UniProt P39748) | target engagement in cells |  |  |  | 6.8
CC1(C(=O)O)CC1 | FFAR2 (Homo sapiens, UniProt O15552) | agonist |  |  |  | 2400
CSCC[C@H](NC(=O)[C@H](Cc1ccccc1)NC(=O)[C@H](Cc1c[nH]cn1)NC(=O)CNC(=O)[C@@H](NC(=O)[C@H](C)NC(=O)[C@H](Cc1c[nH]c2ccccc12)NC(=O)[C@H](CC(C)C)NC(=O)[C@@H]1CCC(=O)N1)[C@@H](C)O)C(N)=O | GRPR | inositol phosphate, agonist |  |  |  | 0.00708
C[C@H](N)C(=O)N[C@@H](C)C(=O)N[C@@H](Cc1c[nH]c2ccccc12)C(=O)N[C@@H](CC(=O)O)C(=O)N[C@@H](C)C(=O)N[C@H](C)C(=O)O | Sctr | cAMP, agonist, TR-FRET |  |  |  | 78
Cc1cc(N/C=C(\C(=O)NC2CCC2)C(=O)c2ccc(Cl)cc2Cl)no1 | Gamma-aminobutyric acid receptor subunit alpha-2/beta-1/gamma-2 (Homo sapiens, UniProt P18505+P18507+P47869) | GABA current potentiation, positive modulator, two-electrode voltage clamp | Xenopus laevis oocytes | 30 s preincubation, added: GABA EC10 |  | 0.41 ± 0.07
CC(C)C[C@H](NC(=O)CNC(=O)[C@H](CCC(N)=O)NC(=O)[C@H](CC(C)C)NC(=O)[C@H](CC(C)C)NC(=O)[C@H](CCCNC(=N)N)NC(=O)[C@H](CCC(N)=O)NC(=O)[C@H](CC(C)C)NC(=O)[C@H](C)NC(=O)[C@H](C)NC(=O)[C@H](CO)NC(=O)[C@H](CC(=O)O)NC(=O)[C@H](CCC(N)=O)NC(=O)[C@H](CC(C)C)NC(=O)[C@H](CCCNC(=N)N)NC(=O)[C@H](CO)NC(=O)[C@H](CC(C)C)NC(=O)[C@H](CCC(=O)O)NC(=O)[C@H](CO)NC(=O)[C@@H](NC(=O)[C@H](Cc1ccccc1)NC(=O)[C@@H](NC(=O)CNC(=O)[C@H](CC(=O)O)NC(=O)[C@H](CO)NC(=O)[C@@H](N)Cc1c[nH]cn1)[C@@H](C)O)[C@@H](C)O)C(=O)N[C@H](C(N)=O)C(C)C | Sctr | cAMP production, agonist | CHO-SecR | 30 min, 37 °C, added: 1 mM IBMX |  | 0.0004 ± 0.0001
O=C1C2=C(CCN(Cc3ccccc3)C2)N2CCN=C2N1Cc1ccc(C(F)(F)F)cc1 | CLPP (Homo sapiens, UniProt Q16740) | enzyme activity, activator |  | added: Ac-WLA-AMC substrate |  | 0.131 ± 0.0178
CC(C)C[C@H](NC(=O)CNC(=O)[C@H](CCC(N)=O)NC(=O)[C@H](C)NC(=O)[C@H](CC(C)C)NC(=O)[C@H](CCCNC(=N)N)NC(=O)[C@H](CCC(N)=O)NC(=O)[C@H](CC(C)C)NC(=O)[C@H](CCCNC(=N)N)NC(=O)[C@H](C)NC(=O)[C@H](CO)NC(=O)[C@H](CC(=O)O)NC(=O)[C@H](CCC(N)=O)NC(=O)[C@H](CC(C)C)NC(=O)[C@H](CCCNC(=N)N)NC(=O)[C@H](CO)NC(=O)[C@H](CC(C)C)NC(=O)[C@H](CCC(=O)O)NC(=O)[C@H](CO)NC(=O)[C@@H](NC(=O)[C@H](Cc1ccccc1)NC(=O)[C@@H](NC(=O)CNC(=O)[C@H](CC(=O)O)NC(=O)[C@H](CO)NC(=O)[C@@H](N)Cc1c[nH]cn1)[C@@H](C)O)[C@@H](C)O)C(=O)N[C@H](C(N)=O)C(C)C | Sctr | cAMP production, agonist | CHO-SecR | 30 min, 37 °C, added: 1 mM IBMX |  | 0.0332 ± 0.0062
COc1ccc(-c2cc(C(F)(F)F)nc(S(=O)(=O)CCCC(=O)Nc3ccccc3F)n2)cc1OC | AVPR2 (Homo sapiens, UniProt P30518) | cAMP accumulation, positive allosteric modulator | CHO-K1 overexpressing AVPR2 | added: vasopressin at EC20 |  | 13 ± 13
